Published values from different studies.
Lines come from different studies, so protocols differ.

| SMILES | test | system | setting | measurement | value |
| --- | --- | --- | --- | --- | --- |
| Nc1nc2cc(-c3ccc4ncc(C(=O)N5CCOCC5)n4c3)ccc2o1 | measured: Vomiting | advanced solid tumour patients | dose not given, all grades, all doses | patients with adverse event | 51% |
| CO[C@H]1C[C@@H]2CC[C@@H](C)[C@@](O)(O2)C(=O)C(=O)N2CCCC[C@H]2C(=O)O[C@H]([C@H](C)C[C@@H]2CC[C@@H](OC(=O)NCCOCCOCCOCCOCCOCCOCCOCCOCCC(=O)N3CCc4cc(Cn5nc(-c6ccc7oc(N)nc7c6)c6c(N)ncnc65)ccc4C3)[C@H](OC)C2)C[C@@H](O)[C@H](C)/C=C(\C)[C@@H](O)[C@@H](OC)C(=O)[C@H](C)C[C@H](C)/C=C/C=C/C=C/1C | measured: grade ≥3 treatment-related AE | patients with advanced solid tumours | intravenous, dose not given, all patients, weekly | patients with AE | 37% |
| O=C1Nc2cc3[nH]nc(-c4ccncc4)c3cc2CN1Cc1ccccc1 | CTCAE v4.03 | advanced solid tumour patients | intravenous, 3.6 mg/kg, schedules 1/2 | patients with dizziness | 0% |
| CC(=O)c1c(C)c2cnc(Nc3ccc(C4CCN(CCS(C)(=O)=O)CC4)cn3)nc2n(C2CCCC2)c1=O |  | HR+/HER2- advanced breast cancer patients | oral, 100 mg bid, all grades, monotherapy arm | patients with neutropenia | 93.3% |
| CCN(CCO)CCCC(C)Nc1ccnc2cc(Cl)ccc12 (centres unmarked) | measured: Hyperglycemia grade 1 | newly diagnosed glioblastoma patients | oral, 200 mg/dose, with radiotherapy and temozolomide | patients with adverse event | 33% |
| C=CCNc1c(O)cc2c(O)c1C[C@@H](C)C[C@H](OC)[C@H](O)[C@@H](C)/C=C(\C)[C@H](OC(N)=O)[C@@H](OC)/C=C\C=C(/C)C(=O)N2 |  | unresectable or metastatic STS, GIST, other | intravenous, 225 mg/m^2 | patients with sinus bradycardia | 33% |
| N[C@@H]1c2ccccc2OC12CCN(c1cnc3c(N4CCCc5ncccc54)n[nH]c3n1)CC2 |  | advanced solid tumour patients | oral, 20 mg once daily | patients with grade ≥3 TEAE | 66.7% |
| CN1CC[C@@H](c2c(O)cc(O)c3c(=O)cc(-c4ccc(C(F)(F)F)cc4Cl)oc23)[C@@H]1CO | measured: Nausea | B-cell malignancies or AML | oral, 100 mg, continuous dosing | patients with adverse event | 12.5% |

For quick reference, copied from above:
| SMILES | test | system | setting | measurement | value |
| --- | --- | --- | --- | --- | --- |
| C=CCNc1c(O)cc2c(O)c1C[C@@H](C)C[C@H](OC)[C@H](O)[C@@H](C)/C=C(\C)[C@H](OC(N)=O)[C@@H](OC)/C=C\C=C(/C)C(=O)N2 |  | unresectable or metastatic STS, GIST, other | intravenous, 225 mg/m^2 | patients with sinus bradycardia | 33% |
